Published values of several laboratories.
Lines come from different studies, so protocols differ. Values joined by “and” are separate records of one study, mostly repeats; a detail may differ.
Chain of UniProt P10635 (whole entry, looked up): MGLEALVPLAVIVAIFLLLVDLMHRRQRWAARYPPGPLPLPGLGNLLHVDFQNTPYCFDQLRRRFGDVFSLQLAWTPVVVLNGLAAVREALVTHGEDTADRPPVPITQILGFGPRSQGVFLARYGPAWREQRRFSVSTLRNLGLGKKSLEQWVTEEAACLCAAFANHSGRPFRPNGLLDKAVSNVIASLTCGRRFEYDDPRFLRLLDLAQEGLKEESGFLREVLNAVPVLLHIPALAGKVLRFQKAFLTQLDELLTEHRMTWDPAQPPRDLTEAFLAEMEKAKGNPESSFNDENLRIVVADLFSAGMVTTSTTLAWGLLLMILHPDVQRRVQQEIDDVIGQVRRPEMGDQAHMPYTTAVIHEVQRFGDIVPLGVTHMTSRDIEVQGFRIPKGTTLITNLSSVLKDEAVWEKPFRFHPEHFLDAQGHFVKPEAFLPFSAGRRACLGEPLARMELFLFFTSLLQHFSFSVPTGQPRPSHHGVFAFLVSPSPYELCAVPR

`N=C(N)NCCC[C@@H]1NC(=O)[C@H](CO)NC(=O)[C@@H](NC(=O)[C@H](CO)NC(=O)[C@H](CO)NC(=O)[C@H](Cc2c[nH]c3ccccc23)NC(=O)CNC(=O)[C@H](CO)NC(=O)[C@@H](N)Cc2c[nH]c3ccccc23)CSSC[C@@H](C(=O)NCC(=O)O)NC(=O)[C@H](CO)NC1=O` has a Cmax of 2160 ng/mL (patients, plasma; intravenous, 5 mg/kg, thrice weekly, median).
The Cmax of `C=C[C@]1(C)C[C@@H](OC(=O)CSc2ccc(NC(=O)c3ccco3)cc2)[C@]2(C)[C@H](C)CC[C@]3(CCC(=O)[C@H]32)[C@@H](C)[C@@H]1O` is reported as 560 ng/mL and 562 ng/mL (M. gallisepticum-infected chickens, plasma; intramuscular, 5 mg/kg single dose).
For `CNCc1ccc(-c2cc(=O)c3ccc4[nH]c(C(F)(F)F)nc4c3o2)cc1`, the Cmax was 90.8 ng/mL (ICR mice, plasma; oral, 5 mg/kg).
With `CC(C)C[C@H](NC(=O)[C@H](CCCN)NC(=O)CNC(=O)[C@@H](NC(=O)[C@H](C)NC(=O)[C@@H]1CSCSC[C@H](NC(=O)CC[C@H](N)C(=O)O)C(=O)N[C@@H](CC(N)=O)C(=O)N[C@@H]([C@@H](C)O)C(=O)N[C@@H](C)C(=O)N[C@@H]([C@@H](C)O)C(=O)N1)[C@@H](C)O)C(=O)N[C@@H](C)C(=O)N[C@@H](CCC(=O)O)C(=O)N[C@@](C)(Cc1ccccc1)C(=O)N[C@@H](CC(C)C)C(=O)N[C@H](C(=O)N[C@@H](CCCNC(=N)N)C(=O)N[C@@H](CO)C(=O)N[C@@H](CO)C(=O)N[C@@H](CC(N)=O)C(=O)N(C)[C@@H](CC(N)=O)C(=O)N[C@@H](Cc1ccccc1)C(=O)NCC(=O)N1CCC[C@H]1C(=O)N[C@@H](CCCCNC(=O)CC[C@H](NC(=O)CC[C@H](NC(=O)CCCCCCCCCCCCCCCCCCC(=O)O)C(=O)O)C(=O)O)C(=O)N[C@@H](CC(C)C)C(=O)N1CCC[C@H]1C(=O)N1CCC[C@H]1C(=O)N[C@H](C(=O)N[C@@H](CCC(=O)O)C(=O)N[C@H](C(=O)NCC(=O)N[C@@H](CO)C(=O)N[C@@H](CC(N)=O)C(=O)N[C@H](C(=O)N[C@@H](Cc1ccc(O)cc1)C(N)=O)[C@@H](C)O)C(C)C)[C@@H](C)O)C(C)C` the Cmax was 110 ng/mL (healthy humans, plasma; subcutaneous, dose not given).
Under “log2 fold change”, `COC1CN([C@H]2CC[C@H]([C@@]3(C)Oc4c(Cl)cc(C(=O)NCc5c(SC)cc(C)[nH]c5=O)c(C)c4O3)CC2)C1` is recorded as 1.46 (RNA-seq, refers to: AGPAT4; human, whole blood; dose not given, 24 h; reference: pretreatment baseline).
`COc1cc2nccc(Oc3ccc(NC(=O)C4(C(=O)Nc5ccc(F)cc5)CC4)cc3)c2cc1OC` has a Cmax of 468 ng/mL (male patients, monotherapy, plasma; oral, 60 mg once daily).
With `OCCCN1CC[C@@H]2C[C@H]1c1cc(-c3ccc(C(F)(F)F)cc3)ccc12` the Cmax was 508 ng/mL (plasma; ip, concentration not given).
`CNC(=O)C1CCCN(C(=O)C2CC3CCC2N3C(=O)[C@@H]2C[C@@H](O)CN2C(=O)NCc2cccc(Cl)c2F)C1` (mixture of isomers) gave a dextrorphan formation of 145 ng/mL (Cytochrome P450 2D6 (CYP2D6, Homo sapiens, UniProt P10635); enzyme activity, inhibitor, time-dependent inhibition; 1.85 µM, preincubated without NADPH).
`CCCC[C@H](NC(C)=O)C(=O)N[C@@H](CO)C(=O)N[C@H](C(=O)N1CCC[C@H]1C(=O)N[C@]1(C)CCCCCCC=CCCC[C@@](C)(C(=O)N[C@@H](Cc2ccccc2)C(=O)N[C@@H](CCCCN)C(=O)N[C@@H](CCCNC(=N)N)C(=O)N[C@@H](CC(C)C)C(=O)N[C@@H](CCC(N)=O)C(N)=O)NC(=O)[C@H](CCCNC(=N)N)NC(=O)[C@H](CCCC)NC(=O)[C@H](CC(C)C)NC(=O)[C@H](CCCNC(=N)N)NC(=O)[C@H](CCCNC(=N)N)NC(=O)[C@H](CCCNC(=N)N)NC1=O)[C@@H](C)O`: “remaining intact peptide” 68.9% (proteinase K (Tritirachium album); proteolytic stability, LC-MS; 25 µM, 184.5 min, pH 7.4).
For `CC(C)OCCOCc1ccc(OCC(O)CN(N=O)C(C)C)cc1` (stereo not drawn), “revertant fold increase” read 1.2 fold (Salmonella typhimurium; Ames test; TA100; 15.8 µg/plate, 30 % hamster S9; reference: solvent control).
The Cmax of `CCCCCCCOc1ccc(CC[C@](N)(CO)COP(=O)(O)O)cc1C(F)(F)F` is reported as 7.28 ng/mL (healthy human males, plasma; 0.5 mg, day 21).
`COCC1CN(C2CCN(c3cc(OC)c(Nc4ncc(Br)c(Nc5ccc6c(c5P(C)(C)=O)OCCO6)n4)cc3C)CC2)C1` gave a Cmax of 21.6 ng/mL (EGFR-mutant NSCLC patients, plasma; oral, 10 mg single dose, geometric mean).

Some of these lines once more:
`N=C(N)NCCC[C@@H]1NC(=O)[C@H](CO)NC(=O)[C@@H](NC(=O)[C@H](CO)NC(=O)[C@H](CO)NC(=O)[C@H](Cc2c[nH]c3ccccc23)NC(=O)CNC(=O)[C@H](CO)NC(=O)[C@@H](N)Cc2c[nH]c3ccccc23)CSSC[C@@H](C(=O)NCC(=O)O)NC(=O)[C@H](CO)NC1=O` has a Cmax of 2160 ng/mL (patients, plasma; intravenous, 5 mg/kg, thrice weekly, median).
With `OCCCN1CC[C@@H]2C[C@H]1c1cc(-c3ccc(C(F)(F)F)cc3)ccc12` the Cmax was 508 ng/mL (plasma; ip, concentration not given).
